# Results from different studies.
# Each numbered part is a random draw from the data of one study; scales do not carry over between parts. Positions count from the first letter of the parent shown.

# Set 1
# Target: RING finger protein unkempt homolog, zinc fingers 1-6, GST-SBP tag (UNK, Homo sapiens, UniProt Q9C0B0, residues 30-357)
# UniProt Q9C0B0, sequence (30-357, looked up): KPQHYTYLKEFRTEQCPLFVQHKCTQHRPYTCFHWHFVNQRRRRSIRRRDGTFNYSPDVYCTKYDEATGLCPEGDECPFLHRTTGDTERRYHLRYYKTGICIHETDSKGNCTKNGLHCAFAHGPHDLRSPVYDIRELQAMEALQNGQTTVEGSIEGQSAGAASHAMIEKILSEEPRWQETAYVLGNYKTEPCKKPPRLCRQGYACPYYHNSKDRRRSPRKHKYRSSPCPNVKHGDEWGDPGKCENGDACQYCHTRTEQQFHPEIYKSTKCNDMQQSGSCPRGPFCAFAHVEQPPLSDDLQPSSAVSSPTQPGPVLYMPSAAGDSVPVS
# Technique: RNA Bind-n-Seq
# Molecule type: RNA
# Medium: in vitro
# Concentration: not given
# Setting: RNA with constant flanks, human-mouse chimeric sites, ends assumed
# Baseline: input RNA pool
# Direction: higher = stronger binding
# All sequences stand within: GGGAGUUCUACAGUCCGACGAUC … CAACAGAGGAUUGAGCAUCA
Strand,bound/input enrichment [ratio]
CCCCAAUACCAUUUGCAGGUCUGGAACUGCACUCUCUUUUUUAAAAAACAUGUAUACAUUUUAGGGCUGUAGAUUUAUUUUCCUGGUUUCUUUUCCAAUUGCUGACUUUGAGCACAAGAA,2.21
GAGUCGAGCAAACUUGAAACAAUUCGUUAUCUUGCAGCCUCAGUGUUCACUUGCUUGGCGAUAGCAUAUUGGGAUUUUAGGUUCUGGGGAAGUAGUAGACGAUGAUGCUGCCGCUGCUGC,3.64
UUGAAAAACACAGAUAUCAAAGUUGUUGACUUUGGAAGUGCAACGUAUGAUGAUGAACAUCACAGUACUUUGGUGUCUACCCGGCACUACAGAGCUCCAGAGGUCAUUUUGGCUUUAGGU,0.35
GUGACUGGUGUUAAGAUUUCCCCUCAGCAAAGAAGUGCAGUAGUCACAAUAAUCCCUUCUGUGGUGAGUGCCAGUCAGAUUGUGGAGCUGGUCCCAGAACUCAGUUUAGACAUGGGAACU,0.293
CGCUUGGAUGAGGCGGGUGUCACAGAUGAAGUGCUAGAUUCUGCCAUGCAAGCCUUCUUACUAGAAAUCAUUGUUAAACAUGGGGAGCCGGCACCUUAUUUAUGUAACAAAGAUCCGUUU,0.283
CAGUCCCGCGACAGCGUUGCAGGACGAUGUGAACAAAAACUCAAAGCGGACCCUCUAUUGUAGUUCUUGAUUCUCGAAAUGUGCUAUUGUUUUUAAACUUUUUUUUUUUUUUUUUAAAGA,0.723
UAAAUUAGCCAGCACCACCGUUCUCACUCCCUGGGCUGCGGAAAGCCAGAAGAUUUUAUCUAGCUUAUACAAGGCUGCUGGUGUUCCCUCUUUUUUUCCACGAGGGUGUUUUUGGCUGCA,0.69
CUCGGCACCGGCACGCUUUACAUCGCGGAGAGCCGCCUGUCUUGGUUAGAUGGUUCGGGAUUAGGAUUCUCACUGGAAUACCCCACCAUUAGUUUACAUGCAUUAUCCAGGGAUCCAAAC,2.05
ACCAUUUUCGCGGUUCAAGGUUUUGUGGUAGUUCACUUACGGUAUUAAAUUAUUAUUCUGCUUAGCUUAAAGUAAGGAUAAUUGCAUUUAAAGAGGUUACUGAAUGUUACUCUGAAACUU,0.188
UGGCGCCUCCCAUUUUUACUCGUGUUUUUAAGUGUAUAAGAUGUAUAUACAUGUAUUUACAAUUGAGCUUUUGUUACAUAAUGCUGAAAUGCUACUGGAGAUUAUGAAAAAUGUUUCAAU,0.133
AGAAUCUUGGGACUGUUUUACUUAAUUGGUCAUUGAUAGCUUAACAAACAUGGAGAUAAGAUUAGAAAUCUUGACAUCAACAGGUAUCAAGCAGAAAAAACCCUGGCCACGUGUCUCCUG,0.167

# Set 2
# Target: Sal-like protein 4, full length isoform A (SALL4, Homo sapiens, UniProt Q9UJQ4, residues 1-1053)
# UniProt Q9UJQ4, sequence (whole entry, looked up): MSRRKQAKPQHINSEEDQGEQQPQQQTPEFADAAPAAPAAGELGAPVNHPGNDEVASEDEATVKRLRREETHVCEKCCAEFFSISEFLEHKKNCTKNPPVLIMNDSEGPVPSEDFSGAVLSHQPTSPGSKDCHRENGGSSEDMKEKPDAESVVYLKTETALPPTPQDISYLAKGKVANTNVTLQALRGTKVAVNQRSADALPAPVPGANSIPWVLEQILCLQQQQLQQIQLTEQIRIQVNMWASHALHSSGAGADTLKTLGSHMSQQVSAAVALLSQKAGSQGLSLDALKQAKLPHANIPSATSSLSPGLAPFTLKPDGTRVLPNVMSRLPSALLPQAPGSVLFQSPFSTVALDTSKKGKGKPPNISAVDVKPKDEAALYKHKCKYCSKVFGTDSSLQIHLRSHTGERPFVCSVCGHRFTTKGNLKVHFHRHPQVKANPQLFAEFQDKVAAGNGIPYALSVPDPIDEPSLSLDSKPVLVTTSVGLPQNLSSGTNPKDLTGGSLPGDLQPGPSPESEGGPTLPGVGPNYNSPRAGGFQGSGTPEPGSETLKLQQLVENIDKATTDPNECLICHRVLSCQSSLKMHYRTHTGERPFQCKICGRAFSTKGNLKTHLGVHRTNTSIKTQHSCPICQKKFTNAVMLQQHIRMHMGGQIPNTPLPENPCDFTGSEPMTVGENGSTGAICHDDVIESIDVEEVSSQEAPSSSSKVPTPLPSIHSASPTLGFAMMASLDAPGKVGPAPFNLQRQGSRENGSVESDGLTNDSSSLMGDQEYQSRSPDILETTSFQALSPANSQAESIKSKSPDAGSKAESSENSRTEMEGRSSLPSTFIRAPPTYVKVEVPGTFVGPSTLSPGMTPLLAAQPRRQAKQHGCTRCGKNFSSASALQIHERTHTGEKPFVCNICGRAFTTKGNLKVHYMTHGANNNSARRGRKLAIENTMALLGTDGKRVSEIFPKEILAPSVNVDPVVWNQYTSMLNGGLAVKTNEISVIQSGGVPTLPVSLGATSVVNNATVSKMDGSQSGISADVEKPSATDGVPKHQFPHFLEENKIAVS
# Technique: universal PBM
# Molecule type: double-stranded DNA, one strand shown
# Medium: in vitro
# Concentration: 600 nM
# Setting: 8-mer, flanks averaged, mean of replicates
# Direction: higher = stronger binding
Strand,E-score
CGAGCATA,0.0426
CGCTTCGA,-0.362
AGCCTAGC,-0.223
CCGGAGCC,-0.321
AGGCCTTC,-0.0471
CCACTGCG,-0.184
ACTACGCC,-0.179
CGCCGTAG,-0.224
GATTCCTA,0.0059
CTATAGGA,0.189
CTGTAAGC,-0.0284
ACTATCAT,0.298
CATGTATC,0.224
CACTTGAC,-0.0908
GCAGAGGA,-0.133
AAACCTAT,0.223
GAAATTGA,0.202
AATTCAAG,0.213
CCTAGATA,0.0998
CAGAAGTA,0.264
ACGTCACG,-0.0655
ACCCCGGG,-0.374
AACTAAAT,0.155

# Set 3
# Target: Max-binding protein MNT, bHLH-zipper, MAX partner unstated (MNT, Homo sapiens, UniProt Q99583, residues 220-300)
# Technique: protein-binding microarray
# Molecule type: double-stranded DNA, one strand shown
# Medium: in vitro
# Concentration: not given
# Setting: k-mer, scored over probes, only values ≥0.25
# Direction: higher = stronger binding
# Construct (chain): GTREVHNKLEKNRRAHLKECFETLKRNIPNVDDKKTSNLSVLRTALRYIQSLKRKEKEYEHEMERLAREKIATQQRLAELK
Strand,E-score
CACCACAC,0.287
ACGCGAGT,0.285
ACACATGG,0.468
ACGCTGCT,0.252
CACACGCA,0.33
CCATGCCC,0.287
AACGTGGG,0.407
CCACGGGG,0.354
CACGTTCA,0.315
GCATGGCC,0.401
AGCGTGTC,0.366
ATCGCATG,0.347
ATGTGATA,0.299
CACGCCTG,0.369
ACGCGTCC,0.308
GAACGCAC,0.272
GCCACGCA,0.35
CTCATGGC,0.323
CGCACGCG,0.444
CATGTGGG,0.465
CGTGCAAA,0.285
CGGCATGC,0.388

# Set 4
# Target: ABI1, truncated, D143A, DHFR fusion (Arabidopsis thaliana)
# Technique: DHFR PCA, deep sequencing
# Medium: yeast
# Setting: methotrexate growth selection, single substitutions
# With: (+)-ABA 58 µM
# Baseline: wild-type fitted maximum
# Direction: higher = stronger binding
# Parent: PYL1, truncated, DHFR fusion (Arabidopsis thaliana); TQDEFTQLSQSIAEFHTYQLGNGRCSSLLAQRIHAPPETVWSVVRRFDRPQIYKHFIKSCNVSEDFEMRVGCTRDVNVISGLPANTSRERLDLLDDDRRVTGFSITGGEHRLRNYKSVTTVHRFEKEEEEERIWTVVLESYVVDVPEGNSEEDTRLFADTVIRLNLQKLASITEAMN; partner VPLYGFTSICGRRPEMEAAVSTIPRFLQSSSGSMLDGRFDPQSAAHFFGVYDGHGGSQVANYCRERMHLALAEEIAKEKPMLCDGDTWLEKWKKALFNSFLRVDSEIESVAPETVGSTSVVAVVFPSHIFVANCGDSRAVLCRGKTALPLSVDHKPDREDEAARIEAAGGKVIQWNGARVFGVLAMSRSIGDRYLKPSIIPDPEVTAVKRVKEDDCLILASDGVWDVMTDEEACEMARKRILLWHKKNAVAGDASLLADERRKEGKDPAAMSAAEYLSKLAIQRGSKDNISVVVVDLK
Substitution,relative binding score
L169S,-1.93%
D97S,91.1%
Q51K,29.5%
S11G,79%
E38P,45.8%
S9I,68.8%
I172D,6.15%
V137H,-1.59%
V121C,71.1%
E14K,71.9%
L82D,-3.12%
S140V,4.38%
Q19H,83.8%

# Set 5
# Target: RNA binding protein fox-1 homolog 2, RRM domain, GST-SBP tag (RBFOX2, Homo sapiens, UniProt O43251-10, residues 100-194)
# Technique: RNA Bind-n-Seq
# Molecule type: RNA
# Medium: in vitro
# Concentration: 365 nM
# Setting: natural RNA segment, single round, ends assumed
# Baseline: no-protein control
# Direction: higher = stronger binding
# All sequences stand within: GGGAGUUCUACAGUCCGACGAUC … UGGAAUUCUCGGGUGCCAA
# Target sequence (chain): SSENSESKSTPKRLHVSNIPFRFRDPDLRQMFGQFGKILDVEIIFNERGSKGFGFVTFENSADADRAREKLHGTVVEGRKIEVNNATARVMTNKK
Strand,RBNS enrichment (R)
GUUUGUUUCUACAUACCUAUGACCACAGCUCUGGAAAAAUAGCAAAUGAAGAAAUGAAUUGCCAAAACCACUGAGGCCUCCUCUCAAAACAAAACAUAUAAAAGUAACAG,0.569
CAACUCAGAUCAAAAAUGGGCAGCCAAGUCUUCGGUAGGAAUUGGAGCCGGUGUAAUUCCUCCCUAAGAGGCAACCUGUUGAAUUUACUCUCUCAGAGUAAAUGGUGGGA,0.333
AGACGUCCCCGUGAGCCCGAGGCUGGAAGUGGUGUCUGCCUUCAAGGGUUAAUCCCUCUUUGUUCCAAGCAGAAGCAUUCUGGCAUCCCAGUGAAGAGCUCAGGCCCUCA,0.187
AAAAAAAUUGUCCCAGAUGCGUUAAGAAAUAAUAACACCCAGGGAUACUCACCCAUGCAUAGCUACCCAGGGUUAAUUGGUAGCUGGGAUAUCUUUUCGCCUCAGACAGC,0.404
AAUUGUCAAUCAAUUUUACCAAUAACAAAGCCAAUAAUAUACUGUUAACAAAGACAAACUGCUUCGAGUUUUCUGUUUUCGUAGUGAGCUUAAAAUGCAUGACAGGAUAG,5.59
UCUCAGCCCCACCCUCACCCUCUGGCCAGGAUCCUACAAGGCUACAUCCCCUGCUGCUUGGUUGACCCCCCCAAAUCCAGGGUCACUGCUCAGCUCUGCUUAUAGCUAUA,0.409
GGUCUCGGCACGGAGCUCUCGAGGCUGUGCAGACCUGCUCGUGGAGGGCUUAGGCUGUCUUAGGUGCACACUUGCACGGUCUCCAUGGCCUCCGUGAGCAUCUUUGUAGC,0.371
AGGCUUUGCUUACUAAGUUUCUGAGUGGCGGAGUGGCCAAACCCUAGAGCUAGCAGUUCCCAUUCAGGCAAACAAGGGCAGUGGUUUUGUUUGUGUUUUUGGUUGUUCCU,0.465
CUGAGAGCAGCAACAGCCCUCUCUUCCUGCCCCCACCUAGGAGUGCCAAUACACUUAAGCUUUGUCUGCAAAACCCUGAUUUUUUUUUUAAAUCUAAAAUGAAUGACUUU,0.564
UUUUCUGUCUCCCAACCAAGGAAUUCCUCUGCUCAGGCUCCUGUUGCCCAGGAUAGCUCUCUUCUAUAGCCAGGAUGUGGAGCUUAAGGAGACUCCAAUGUUUACUUUCU,0.442
UGCAUUAAUACAUUACAAACAUGAAGAUGUUUGUAAAGUUUUGUUUUAGUCAUUUUCUUUGCAGUCACAUCAUUGUACCACCUUCAUUAUUGUAUAGAGCUGCUUCAAUU,0.468
GCUAAGCUUGGCCCUCACCAGCCAGCUUCACUGGAGCACCCAGAACACUUAGCUGGCCACCGCUUUAAUCUGGCCCCUUUGGGAAAGCGAAAAUCCCGAUCACAUUGGAC,0.326

# Set 6
# Target: Histone acetyltransferase KAT6A, winged helix 1, GST fusion (KAT6A, Homo sapiens, UniProt Q92794, residues 1-85)
# Technique: protein binding microarray
# Molecule type: double-stranded DNA, one strand shown
# Medium: in vitro
# Concentration: not given
# Setting: 8-mer, flanks averaged, mean of 2 arrays, mostly near background
# Baseline: not given
# Direction: higher = stronger binding
# Target sequence (chain): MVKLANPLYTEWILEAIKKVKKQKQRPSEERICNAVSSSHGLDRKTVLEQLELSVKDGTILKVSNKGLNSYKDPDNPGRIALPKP
Strand,E-score
GACCTCGA,-0.15
CCAATGTC,-0.128
AAACAATC,-0.0115
ACTCAATC,-0.0769
ATCGGATG,0.07
CCGACTAA,0.0253
ATCCGCAC,0.257
CAGTCAGA,-0.205
GCCGCGAA,0.398
GTAATCTA,-0.029
GGGGACAC,-0.0192
CCAGCCGC,0.318
GAGGCCTC,-0.0967
CGAAAGCA,-0.139
CTTACACA,-0.182
GACGCCTA,0.116
CAGTGCCA,-0.246
GGCGCAAC,0.215
GACAGGAA,-0.146
ATGTCCGC,0.293
ACGTAGCG,0.131
CCTACCCA,-0.229
GAAAACGC,0.121
CACTAAAG,-0.156
AATTATTG,-0.162

# Some of these lines once more (set 3):
Strand,E-score
CACGCCTG,0.369
CACCACAC,0.287
AACGTGGG,0.407
GAACGCAC,0.272
CTCATGGC,0.323
ACGCGTCC,0.308
CCACGGGG,0.354
GCATGGCC,0.401
